Experimental data of several laboratories.
Each numbered part is a random draw from the data of one study; scales do not carry over between parts. Changes are numbered by the printed parent chain.

Set 1 — target: CEP164, C-terminal peptide (human); technique: DHFR complementation, deep sequencing; medium: yeast; reference: wild type; reading: higher = weaker binding
Setting: single substitutions, model-inferred values
Starting sequence: PDZK1, PDZ domain 2 (human); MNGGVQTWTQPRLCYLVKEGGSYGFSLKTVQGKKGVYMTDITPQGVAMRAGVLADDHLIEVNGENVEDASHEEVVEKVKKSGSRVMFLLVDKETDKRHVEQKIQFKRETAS; partner HNRVKVYRF
Change	binding free energy change
G35F	0.792 kcal/mol
I59D	0.653 kcal/mol
G21E	-0.0324 kcal/mol
L27N	1.11 kcal/mol
L16V	0.996 kcal/mol
V85Y	1.88 kcal/mol
S83F	-0.137 kcal/mol

Set 2 — target: CCND2, cyclin fold, Cln2 fusion (human); technique: yeast growth competition, sequencing; medium: yeast; setting: strong parent motif; reference: not given; reading: higher = stronger binding
Starting sequence: INSM1 docking peptide (human); PKAIRKLHFEDEV; partner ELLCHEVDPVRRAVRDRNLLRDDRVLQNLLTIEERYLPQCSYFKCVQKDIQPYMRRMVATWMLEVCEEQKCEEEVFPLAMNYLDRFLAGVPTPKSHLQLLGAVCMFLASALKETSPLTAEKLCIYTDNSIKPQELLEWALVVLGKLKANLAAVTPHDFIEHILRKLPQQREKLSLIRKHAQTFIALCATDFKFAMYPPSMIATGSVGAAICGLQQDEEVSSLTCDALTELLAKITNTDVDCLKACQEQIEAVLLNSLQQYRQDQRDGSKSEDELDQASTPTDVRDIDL
Change	normalised enrichment score
PKAIRKLHEEDEV [F9E]	0.343
PKDIRKLHFEDEV [A3D]	-0.201
PKAIRKLHFEREV [D11R]	1.45
PKANRKLHFEDEV [I4N]	0.683
PKWIRKLHFEDEV [A3W]	-0.489
PKAERKLHFEDEV [I4E]	0.369
PKAIRKLIFEDEV [H8I]	3.32
PKAIRKLHWEDEV [F9W]	0.814
PKAIRYLHFEDEV [K6Y]	1.4
PKAIRKQHFEDEV [L7Q]	-0.207
PKALRKLHFEDEV [I4L]	0.674
PQAIRKLHFEDEV [K2Q]	1.68

Set 3 — technique: DHFR PCA, deep sequencing; medium: yeast; added: (+)-ABA 1.4 µM; reference: wild-type fitted maximum; reading: higher = stronger binding
Target: ABI1, truncated, D143A, DHFR fusion (Arabidopsis thaliana)
Setting: methotrexate growth selection, single substitutions
Starting sequence: PYL1, truncated, DHFR fusion (Arabidopsis thaliana); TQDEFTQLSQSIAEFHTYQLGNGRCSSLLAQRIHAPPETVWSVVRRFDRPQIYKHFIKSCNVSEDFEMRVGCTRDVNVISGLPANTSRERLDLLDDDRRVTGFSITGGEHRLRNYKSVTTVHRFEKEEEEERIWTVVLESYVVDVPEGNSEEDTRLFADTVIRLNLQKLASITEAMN
Change	relative binding score [%]
R99W	82.6
P146N	-16.7
S27G	76.1
L8P	6.64
N149S	60.2
S87Y	35.1
L112M	26.9
G148V	-7.33
Q7F	62
R24D	6.78
L20E	66.7
D97P	5.3
L20S	54.7
R111L	6.84
R111T	10

Further values, each from its own experiment
Molecule	target	test	test system	setting	scale	quantity	value
PhoQ, residues 284 288 289 292 302 303 AQGLTV	PhoP, residues 12 14 15 18 19 GHCSL (Escherichia coli, UniProt P23836)	Sort-seq, refers to: YFP reporter	E. coli	PhoQ-PhoP variant library, added: 10 µM Mg2+	reference: high Mg2+ state, higher = stronger signaling	fold induction	19

Some of these lines once more (set 3):
Change	relative binding score [%]
N149S	60.2
D97P	5.3
